Measurements of several laboratories.
Each line is one published result; not all experiments were run side by side. Several values in a cell are separate wells, animals, samples, runs or records. Numbers after ± are the reported error.

C=C1C(=O)O[C@@H]2/C=C(/C)C3=CC(=O)[C@@](C)(C[C@H](OC(=O)C(C)C)[C@@H]12)O3 — IC50 (HT-29; cytotoxicity): 0.58 µM
C=CC(C)(C)c1cc2cc(-c3ccc(O)cc3O)c(=O)oc2cc1O — IC50 (HT-29; cell growth or viability): > 10 µM
dolastatin 16 — IC50 (HT-29; cell viability, MTT; 48 h): 78 µM
CC1=C(CO)C(=O)O[C@@H]([C@@H](C)[C@H]2CC[C@H]3[C@@H]4C[C@H]5O[C@]56[C@@H](O)C=CC(=O)[C@]6(CO)[C@H]4CC[C@]23C)C1 — IC50 (SK-MEL-28 melanoma; cell viability, MTS): 5.6 ± 0.6 µM
O=C(NO)c1ccc(Cn2cc(Cn3cnc4ccc(F)cc4c3=O)nn2)cc1 — IC50 (MRC5; cell growth or viability, MTT; 48 h): 36.3 µM
C=C1C(=O)O[C@@H]2C/C(C)=C\CC(=O)[C@](C)(OC(C)=O)C[C@H](OC(=O)/C(C)=C\C)[C@@H]12 — IC50 (HT-29; cytotoxicity): 4 µM
COc1ccc(/C=C/C(=O)C(=CC2=CC=C[CH]2[Fe][CH]2C=CC=C2)C(=O)/C=C/c2ccc(OC)c(OC)c2)cc1OC (centres unmarked) — IC50 (NCM460; cytotoxicity, MTT): 929 µM
C=C1C(=O)O[C@@H]2/C=C(/C)C3=CC(=O)[C@@](C)(C[C@H](OC(=O)/C(C)=C\C)[C@@H]12)O3 — IC50 (HT-29; cytotoxicity): 1.4 µM
Cc1ccc2ncn(Cc3cn(Cc4ccc(C(=O)NO)cc4)nn3)c(=O)c2c1 — IC50 (MRC5; cell growth or viability, MTT; 48 h): 166 µM
C=CC(C)(O)Cc1cc2cc(-c3ccc(O)cc3O)c(=O)oc2cc1O (centres unmarked) — IC50 (HT-29; cell growth or viability): > 10 µM
O=C(/C=C/c1ccc(Cn2cc(Cn3cnc4ccc(Cl)cc4c3=O)nn2)cc1)NO — IC50 (MRC5; cell growth or viability, MTT; 48 h): 20.7 µM
O=C(CCCCCCC(=O)N[c-]1cccc1)NO.[Fe+2].c1cc[cH-]c1 — IC50 (MCF7; cell growth or viability): 2.4 µM and 2.44 µM
Nc1cc(N2C(=O)c3ccccc3C2=O)nc(SCC(=O)NN=Cc2ccc(Cl)cc2)n1 — IC50 (WI-38 normal lung fibroblasts; cell growth; 10% fetal bovine serum): 87.4 ± 4.4 µM
O=C(NO)c1ccc(Cn2cc(Cn3cnc4ccc(Br)cc4c3=O)nn2)cc1 — IC50 (MRC5; cell growth or viability, MTT; 48 h): 44.9 µM
C=CC(C)(CO)c1cc2cc(-c3ccc(O)cc3O)c(=O)oc2cc1O (centres unmarked) — IC50 (HT-29; cell growth or viability): > 10 µM
O=C(/C=C/c1ccc(Cn2cc(Cn3cnc4ccc(F)cc4c3=O)nn2)cc1)NO — IC50 (MRC5; cell growth or viability, MTT; 48 h): 12.6 µM
CC1(C)c2cc3cc(-c4ccc(O)cc4O)c(=O)oc3cc2OC1CO (centres unmarked) — IC50 (HT-29; cell growth or viability): > 10 µM
